Published values from different studies.
Each line is one published result; not all experiments were run side by side. Values joined by “and” are separate records of one study, mostly repeats; a detail may differ.
Target: Tyrosine-protein kinase FRK (FRK, Homo sapiens, UniProt P42685)
UniProt P42685, sequence (whole entry, unmodified, looked up): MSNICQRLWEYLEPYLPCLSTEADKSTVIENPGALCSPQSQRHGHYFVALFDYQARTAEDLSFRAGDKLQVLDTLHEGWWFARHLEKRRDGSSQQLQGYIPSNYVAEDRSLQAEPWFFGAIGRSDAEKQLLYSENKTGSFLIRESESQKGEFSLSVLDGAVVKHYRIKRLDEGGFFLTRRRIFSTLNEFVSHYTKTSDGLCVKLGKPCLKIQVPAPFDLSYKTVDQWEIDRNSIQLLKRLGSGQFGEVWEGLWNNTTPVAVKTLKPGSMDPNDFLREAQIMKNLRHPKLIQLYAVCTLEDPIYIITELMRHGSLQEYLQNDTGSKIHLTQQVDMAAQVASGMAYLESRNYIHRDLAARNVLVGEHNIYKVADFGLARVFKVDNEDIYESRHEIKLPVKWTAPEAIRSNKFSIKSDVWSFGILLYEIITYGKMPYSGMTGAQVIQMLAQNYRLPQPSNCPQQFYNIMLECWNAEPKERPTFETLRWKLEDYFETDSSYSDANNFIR

Cc1cccc(O[C@H]2CCC[C@@H](C(C)CNCc3ccncc3)C2)c1 (relative stereo)  inhibition (cell-free assay, inhibitor; 10 µM): -2%
COc1ccc(NC(=O)Nc2ccc3c(c2)C(=O)N(C(C)CO)CC(C)C(CN(C)Cc2ccc4c(c2)OCO4)O3)cc1 (centres unmarked)  remaining activity (kinase activity, KinaseProfiler; 0.03 µM, species human; reference: control): 88%
O=C(Cc1ccc(OCc2ccccc2)cc1)NC1(C(=O)O)CCN(C(=O)c2ccc(-c3cccc(Cl)c3)cc2)CC1  activity vs control (enzyme activity, inhibitor; 10 µM): 97%
COc1cc(Nc2nc(C)cc(-c3cnn4nc(OC)ccc34)n2)cc(C(F)(F)F)c1  remaining activity (inhibitor; 1 µM; reference: control): 100%
Nc1ncc2c(n1)-c1c([nH]c3ccc(C4=CCOCC4)cc13)CCC2  remaining binding (binding, competition with immobilised ligand; 1 µM): 100%
COCC12C(=O)NC3C4(C(OC)CC1O)C1CC5(O)C(OC)C(O)C(OC(C)=O)(C1C5OC(=O)c1ccccc1)C3(O)C(OC)C24 (centres unmarked)  remaining activity (kinase activity, inhibitor, ProQinase kinase profiling; 25 µM; reference: control): 98% and 93%
C=CC(=O)Nc1cccc(-c2cnc3[nH]cc(C(=O)NC(C)(C)C)c3n2)c1  inhibition (enzyme activity, inhibitor; 0.1 µM): 10%
O=C(Nc1ccc(Oc2ncnc3[nH]cc(-c4ccccc4)c23)c(F)c1)c1c2n(n(-c3cc(F)ccc3F)c1=O)CCCC2  inhibition (enzyme activity, inhibitor; 0.5 µM): 70%
Cc1cnc2nc1Nc1cccc(c1)COC/C=C/COCc1cc(ccc1OCCN1CCOCC1)N2  remaining binding (binding, competition with immobilised ligand; 0.1 µM): 93%
NC(=O)C[C@H]1CCc2sc3ncnc(O[C@H]4CC[C@H](N5CCOCC5)CC4)c3c21  inhibition (enzyme activity, inhibitor, radiometric; 10 µM): 12%
COc1c(OCCCN2CCOCC2)ccc2c1N=C(NC(=O)c1cnc(N)nc1)N1CCN=C21  remaining activity (kinase activity, inhibitor; 1 µM; reference: untreated control): 106%
CNC(=O)C[C@H](Cc1ccc(C#N)cc1)NC(=O)c1cc(-c2ccc(CN[C@H](C)c3ccc(C)cc3)o2)ccc1Cl  activity vs control (enzyme activity, inhibitor; 1 µM): 93%
C=CC(=O)N1CCc2ccc(-n3c(=O)ccc4cnc5ccc(-c6cnn(C)c6)cc5c43)cc21  remaining binding (KINOMEscan; 1 µM; reference: DMSO control): 100%
C=CC(=O)N1CCCC(n2c(=O)c3ncccc3n(Cc3ccc(Oc4ccccc4)cc3)c2=O)C1 (centres unmarked)  remaining binding (cell-free assay, competition with immobilised ligand; 1 µM): 91%
CN1CC[C@@H](COc2cnc(C#N)cc2-c2ccn3nc(NC(=O)C4CC4)cc3c2)C1  inhibition (enzyme activity, inhibitor; 1 µM): 2%
CC(C)=CC1OC(C)(C)C2C=C3C(=O)C(Cl)=CC(O)C3C3C(O)C4OC4C(=O)C132 (centres unmarked)  remaining binding (cell-free assay, competition with immobilised ligand; 10 µM): 94%
O=C=[N][Ru-4]123([n]4c5ccc(O)cc5c5c6c(c7cc(F)c[n+]1c7c54)C(=O)NC6=O)[S+]1CC[S+]2CC[S+]3CC1 (centres unmarked)  remaining activity (enzyme activity; 100 nM, human enzyme, together with: 10 µM ATP; reference: untreated): 73%

Repeated from above:
C=CC(=O)N1CCc2ccc(-n3c(=O)ccc4cnc5ccc(-c6cnn(C)c6)cc5c43)cc21  remaining binding (KINOMEscan; 1 µM; reference: DMSO control): 100%
C=CC(=O)N1CCCC(n2c(=O)c3ncccc3n(Cc3ccc(Oc4ccccc4)cc3)c2=O)C1 (centres unmarked)  remaining binding (cell-free assay, competition with immobilised ligand; 1 µM): 91%
